Experimental data of several laboratories.
Numbered parts are unrelated; each lists some results of a single study. Positions count from the first letter of the parent shown.
UniProt P20309, sequence (whole entry, looked up): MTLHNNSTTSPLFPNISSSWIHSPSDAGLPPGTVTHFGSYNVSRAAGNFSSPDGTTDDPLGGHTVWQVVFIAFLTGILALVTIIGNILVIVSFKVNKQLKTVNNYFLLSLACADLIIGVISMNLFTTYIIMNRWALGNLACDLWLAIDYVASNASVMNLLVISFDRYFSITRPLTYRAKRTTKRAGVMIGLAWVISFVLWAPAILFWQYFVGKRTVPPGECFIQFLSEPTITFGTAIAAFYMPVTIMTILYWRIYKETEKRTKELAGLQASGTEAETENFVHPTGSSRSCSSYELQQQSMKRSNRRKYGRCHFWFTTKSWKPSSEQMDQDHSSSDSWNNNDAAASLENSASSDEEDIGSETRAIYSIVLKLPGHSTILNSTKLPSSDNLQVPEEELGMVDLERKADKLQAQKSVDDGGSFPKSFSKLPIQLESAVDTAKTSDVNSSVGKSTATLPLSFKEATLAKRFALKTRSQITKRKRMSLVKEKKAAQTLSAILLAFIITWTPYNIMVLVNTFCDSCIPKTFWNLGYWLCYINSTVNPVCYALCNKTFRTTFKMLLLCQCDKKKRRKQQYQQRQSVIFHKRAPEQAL

Block 1
Target: HLA class I histocompatibility antigen, A alpha chain, allele A*80:01 (Homo sapiens, UniProt P04439)
Effect on: peptide-MHC binding
Form: peptide
Tested at: concentration not given
| Sequence | binding |
| --- | --- |
| GGRKLKLTK | inactive |
| YSDNEMLTH | inactive |
| VLSDLCNFL | inactive |
| IQNALEKAL | inactive |
| ETKKRMDYF | inactive |
| KQWIVAGAI | inactive |
| LPLKMLNIPSINVH | inactive |
| VRGGMVAPL | inactive |

Block 2
Target: CCNB2, cyclin fold, Cln2 fusion (human)
Technique: yeast growth competition, sequencing
Medium: yeast
Notes: strong parent motif
Relative to: not given
Reading: higher = stronger binding
Parent: viral docking peptide; TSVRRALFTGGSD
| Substitution | normalised enrichment score |
| --- | --- |
| V3G | -0.0335 |
| G10W | 0.632 |
| S2Q | 0.427 |
| F8N | 0.176 |
| S12P | 0.899 |
| T9P | 0.564 |
| R5A L7A | -0.207 |
| G11N | 0.427 |

Further values, each from its own experiment
| Structure (SMILES) | target or system | test | test system | setting | quantity | result |
| --- | --- | --- | --- | --- | --- | --- |
| CNCc1ccccc1-c1csc([C@@H](C)Nc2nc(C)nc3cc(OC)c(OC)cc23)c1 | Muscarinic acetylcholine receptor M3 (CHRM3, Homo sapiens, UniProt P20309) | cell-free assay | – | 10 µM | inhibition | 56.5% |
| [N-]=[N+]=CC(=O)CC[C@H](N)C(=O)O | – | – | mouse, EL4 tumour | intravenous, 1 mg/kg, day 17 | tumour volume | 0 mm3 |
